Assay results from different studies.
± gives the spread as reported.
Grm5: Metabotropic glutamate receptor 5 (Grm5, Rattus norvegicus, UniProt P31424)
Chain of UniProt P31424 (whole entry, looked up): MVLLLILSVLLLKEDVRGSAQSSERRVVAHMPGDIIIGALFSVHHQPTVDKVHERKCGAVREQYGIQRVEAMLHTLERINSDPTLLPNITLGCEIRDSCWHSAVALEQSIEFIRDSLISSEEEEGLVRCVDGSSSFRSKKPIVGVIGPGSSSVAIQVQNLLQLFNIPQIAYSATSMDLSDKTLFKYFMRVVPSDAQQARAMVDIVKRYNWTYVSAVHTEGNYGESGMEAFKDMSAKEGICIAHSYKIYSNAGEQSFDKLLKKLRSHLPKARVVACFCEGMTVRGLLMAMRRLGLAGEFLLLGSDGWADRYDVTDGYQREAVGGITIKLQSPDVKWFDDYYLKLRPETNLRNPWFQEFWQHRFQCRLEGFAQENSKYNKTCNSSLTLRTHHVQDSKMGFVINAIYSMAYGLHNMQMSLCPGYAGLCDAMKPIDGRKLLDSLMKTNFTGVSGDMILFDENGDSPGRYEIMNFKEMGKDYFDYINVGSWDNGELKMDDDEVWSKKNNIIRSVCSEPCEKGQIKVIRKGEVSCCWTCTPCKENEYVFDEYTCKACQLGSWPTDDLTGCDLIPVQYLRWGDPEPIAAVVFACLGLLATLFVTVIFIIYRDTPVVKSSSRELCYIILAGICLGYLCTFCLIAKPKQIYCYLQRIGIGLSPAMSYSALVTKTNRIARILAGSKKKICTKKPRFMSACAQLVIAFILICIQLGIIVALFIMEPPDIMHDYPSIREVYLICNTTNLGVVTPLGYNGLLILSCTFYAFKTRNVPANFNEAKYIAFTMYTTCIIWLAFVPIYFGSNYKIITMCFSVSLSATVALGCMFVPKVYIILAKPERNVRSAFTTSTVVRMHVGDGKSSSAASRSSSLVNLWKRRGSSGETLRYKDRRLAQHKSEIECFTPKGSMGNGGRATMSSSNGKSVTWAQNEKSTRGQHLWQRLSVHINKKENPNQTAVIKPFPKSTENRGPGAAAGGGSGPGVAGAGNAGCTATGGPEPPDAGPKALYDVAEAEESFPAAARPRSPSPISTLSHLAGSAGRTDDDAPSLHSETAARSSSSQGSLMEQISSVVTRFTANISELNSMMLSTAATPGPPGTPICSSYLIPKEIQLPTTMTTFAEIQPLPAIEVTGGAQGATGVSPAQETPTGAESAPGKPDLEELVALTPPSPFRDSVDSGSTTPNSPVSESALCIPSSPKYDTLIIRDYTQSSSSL

Structure (SMILES) = CCCCOc1ccc(C(=O)Nc2ccc(Cl)cn2)cc1; target = Grm5; test = calcium mobilization, positive allosteric modulator; test system = HEK293; conditions = concentration not given, added: EC20 glutamate; how to read = baseline: maximal glutamate response; quantity = potentiation; result = 112%
Structure (SMILES) = N#Cc1cnc(Nc2nc3ccccc3o2)nc1-c1ccc(Cl)cc1F; target = Grm5; test = calcium mobilization, negative allosteric modulator; conditions = added: glutamate EC80; how to read = baseline: maximal glutamate response; quantity = maximal response; result = 1.8 ± 0.5%
Structure (SMILES) = CCCCOc1ccc(C(=O)Nc2ccc(F)cc2F)cc1; target = Grm5; test = calcium mobilization, positive allosteric modulator; test system = HEK293; conditions = concentration not given, added: EC20 glutamate; how to read = baseline: maximal glutamate response; quantity = potentiation; result = 92%
Structure (SMILES) = Nc1cc(NC(=O)c2cccc(Cl)c2)cc(Oc2cccnc2)c1; target = Grm5; test = calcium signal, antagonist; conditions = 30 µM; quantity = remaining activity; result = 1.3%
Structure (SMILES) = Cc1nc(C#Cc2cccnc2)cs1; target = Grm5; test = calcium mobilization, negative allosteric modulator; conditions = 30 min, added: glutamate; quantity = pKB; result = 6.97 ± 0.15 -log M
Structure (SMILES) = CCCCOc1ccc(C(=O)NC2CCCCC2)cc1; target = Metabotropic glutamate receptor 5, MPEP allosteric site (Grm5, Rattus norvegicus, UniProt P31424); test = [3H]methoxyPEPy binding, radioligand displacement; conditions = 10 µM; quantity = inhibition; result = 12 to 27%
Structure (SMILES) = N#Cc1cc(F)cc(C(=O)Nc2cccc(Cl)c2F)c1; target = Grm5; test = calcium mobilization, negative allosteric modulator; conditions = 30 min, added: glutamate; quantity = pKB; result = 6.57 ± 0.18 -log M
Structure (SMILES) = N#Cc1cnc(Nc2nc3ccccc3o2)nc1-c1cccs1; target = Grm5; test = calcium mobilization, negative allosteric modulator; conditions = added: glutamate EC80; how to read = baseline: maximal glutamate response; quantity = maximal response; result = 35 ± 10%
Structure (SMILES) = N#Cc1cnc(Nc2nc3ccccc3o2)nc1-c1ccc(F)cc1; target = Grm5; test = calcium mobilization, negative allosteric modulator; conditions = 30 min, added: glutamate; quantity = pKB; result = 7.11 ± 0.28 -log M
Structure (SMILES) = COc1ccccc1-c1nc(Nc2nc3ccccc3o2)ncc1C#N; target = Grm5; test = calcium mobilization, negative allosteric modulator; conditions = added: glutamate EC80; how to read = baseline: maximal glutamate response; quantity = maximal response; result = 0.9 ± 0.4%

A few entries again:
Structure (SMILES) = CCCCOc1ccc(C(=O)Nc2ccc(Cl)cn2)cc1; target = Grm5; test = calcium mobilization, positive allosteric modulator; test system = HEK293; conditions = concentration not given, added: EC20 glutamate; how to read = baseline: maximal glutamate response; quantity = potentiation; result = 112%
Structure (SMILES) = N#Cc1cnc(Nc2nc3ccccc3o2)nc1-c1ccc(Cl)cc1F; target = Grm5; test = calcium mobilization, negative allosteric modulator; conditions = added: glutamate EC80; how to read = baseline: maximal glutamate response; quantity = maximal response; result = 1.8 ± 0.5%
